Assay results from different studies.
Protocols differ between the studies behind these lines.
Sequence of UniProt P41145 (whole entry, looked up): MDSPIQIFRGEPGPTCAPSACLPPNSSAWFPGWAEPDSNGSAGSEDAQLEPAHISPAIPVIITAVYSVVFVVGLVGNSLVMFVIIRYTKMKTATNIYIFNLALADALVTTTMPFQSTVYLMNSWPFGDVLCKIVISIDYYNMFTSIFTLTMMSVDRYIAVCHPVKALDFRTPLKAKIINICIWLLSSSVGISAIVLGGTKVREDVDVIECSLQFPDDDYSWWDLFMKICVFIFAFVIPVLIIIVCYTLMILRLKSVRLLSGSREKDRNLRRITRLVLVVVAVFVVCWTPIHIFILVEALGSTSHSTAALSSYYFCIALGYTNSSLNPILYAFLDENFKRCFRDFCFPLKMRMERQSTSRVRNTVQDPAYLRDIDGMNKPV
Sequence of UniProt Q9BXA5 (whole entry, looked up): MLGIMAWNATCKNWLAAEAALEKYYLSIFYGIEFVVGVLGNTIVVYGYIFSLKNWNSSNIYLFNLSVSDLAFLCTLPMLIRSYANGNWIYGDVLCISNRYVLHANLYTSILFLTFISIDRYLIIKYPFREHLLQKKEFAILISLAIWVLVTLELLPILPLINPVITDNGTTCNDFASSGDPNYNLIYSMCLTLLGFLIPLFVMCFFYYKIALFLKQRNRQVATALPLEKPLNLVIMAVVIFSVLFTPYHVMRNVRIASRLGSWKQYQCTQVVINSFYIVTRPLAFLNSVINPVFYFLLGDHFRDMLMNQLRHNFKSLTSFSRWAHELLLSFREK
Sequence of UniProt Q6PIU2 (whole entry, looked up): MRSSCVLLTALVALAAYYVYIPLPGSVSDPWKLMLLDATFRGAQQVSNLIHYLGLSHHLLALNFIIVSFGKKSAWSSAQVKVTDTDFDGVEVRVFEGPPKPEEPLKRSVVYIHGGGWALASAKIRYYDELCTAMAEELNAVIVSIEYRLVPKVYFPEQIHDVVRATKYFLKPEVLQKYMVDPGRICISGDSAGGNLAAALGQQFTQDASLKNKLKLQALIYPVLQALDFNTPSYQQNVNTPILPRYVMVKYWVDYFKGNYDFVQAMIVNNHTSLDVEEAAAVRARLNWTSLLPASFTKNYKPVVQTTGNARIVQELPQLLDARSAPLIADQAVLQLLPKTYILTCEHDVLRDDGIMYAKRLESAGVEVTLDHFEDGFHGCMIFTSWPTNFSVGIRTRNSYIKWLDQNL
Sequence of UniProt P07947 (whole entry, looked up): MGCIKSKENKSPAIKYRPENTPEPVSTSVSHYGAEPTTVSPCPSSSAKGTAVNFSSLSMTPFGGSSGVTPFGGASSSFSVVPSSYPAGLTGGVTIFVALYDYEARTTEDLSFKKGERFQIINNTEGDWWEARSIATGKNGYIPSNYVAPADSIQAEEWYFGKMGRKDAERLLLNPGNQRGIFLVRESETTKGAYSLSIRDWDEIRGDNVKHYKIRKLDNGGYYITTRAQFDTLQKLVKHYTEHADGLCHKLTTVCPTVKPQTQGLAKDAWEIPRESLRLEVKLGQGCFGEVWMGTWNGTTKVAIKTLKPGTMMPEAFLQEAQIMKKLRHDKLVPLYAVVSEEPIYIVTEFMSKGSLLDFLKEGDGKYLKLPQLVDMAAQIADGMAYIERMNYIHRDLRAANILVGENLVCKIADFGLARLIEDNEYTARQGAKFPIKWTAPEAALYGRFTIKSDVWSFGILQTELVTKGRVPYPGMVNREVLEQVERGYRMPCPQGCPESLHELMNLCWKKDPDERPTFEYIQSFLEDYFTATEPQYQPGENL
Sequence of UniProt Q13882 (whole entry, looked up): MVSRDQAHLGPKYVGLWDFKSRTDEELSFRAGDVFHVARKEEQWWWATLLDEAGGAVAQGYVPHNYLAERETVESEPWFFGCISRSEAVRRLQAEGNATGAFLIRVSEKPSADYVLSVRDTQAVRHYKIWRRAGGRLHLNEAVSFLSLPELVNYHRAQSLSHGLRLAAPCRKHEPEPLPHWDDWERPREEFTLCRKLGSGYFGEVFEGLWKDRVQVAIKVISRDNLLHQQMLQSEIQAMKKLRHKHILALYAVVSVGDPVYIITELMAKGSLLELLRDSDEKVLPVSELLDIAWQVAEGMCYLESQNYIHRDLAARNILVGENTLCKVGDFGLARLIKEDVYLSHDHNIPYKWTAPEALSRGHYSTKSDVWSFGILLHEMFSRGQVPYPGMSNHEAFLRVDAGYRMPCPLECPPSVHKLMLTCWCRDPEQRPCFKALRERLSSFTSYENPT
Sequence of UniProt Q9NS75 (whole entry, looked up): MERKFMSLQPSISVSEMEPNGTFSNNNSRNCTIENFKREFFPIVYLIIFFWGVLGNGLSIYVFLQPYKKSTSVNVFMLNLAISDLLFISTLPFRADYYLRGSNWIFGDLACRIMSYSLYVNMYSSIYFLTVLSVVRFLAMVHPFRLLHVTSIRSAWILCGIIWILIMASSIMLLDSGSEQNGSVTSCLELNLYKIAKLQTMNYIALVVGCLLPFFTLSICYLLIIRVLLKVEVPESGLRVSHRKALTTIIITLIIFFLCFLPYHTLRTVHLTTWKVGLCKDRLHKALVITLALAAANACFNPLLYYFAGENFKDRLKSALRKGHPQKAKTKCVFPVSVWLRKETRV
Sequence of UniProt Q13705 (whole entry, looked up): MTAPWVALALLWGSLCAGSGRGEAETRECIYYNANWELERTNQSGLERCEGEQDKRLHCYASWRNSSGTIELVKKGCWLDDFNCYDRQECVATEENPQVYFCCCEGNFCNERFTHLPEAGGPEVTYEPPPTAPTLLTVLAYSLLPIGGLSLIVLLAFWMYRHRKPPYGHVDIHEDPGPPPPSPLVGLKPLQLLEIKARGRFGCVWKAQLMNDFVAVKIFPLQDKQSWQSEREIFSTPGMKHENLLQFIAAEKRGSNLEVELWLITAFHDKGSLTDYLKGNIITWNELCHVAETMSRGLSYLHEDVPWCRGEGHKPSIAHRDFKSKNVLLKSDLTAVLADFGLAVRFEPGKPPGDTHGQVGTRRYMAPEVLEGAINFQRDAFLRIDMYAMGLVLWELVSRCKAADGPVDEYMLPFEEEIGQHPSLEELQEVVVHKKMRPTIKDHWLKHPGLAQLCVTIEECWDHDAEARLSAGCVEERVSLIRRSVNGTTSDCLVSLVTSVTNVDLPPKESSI
Sequence of UniProt P07197 (whole entry, looked up): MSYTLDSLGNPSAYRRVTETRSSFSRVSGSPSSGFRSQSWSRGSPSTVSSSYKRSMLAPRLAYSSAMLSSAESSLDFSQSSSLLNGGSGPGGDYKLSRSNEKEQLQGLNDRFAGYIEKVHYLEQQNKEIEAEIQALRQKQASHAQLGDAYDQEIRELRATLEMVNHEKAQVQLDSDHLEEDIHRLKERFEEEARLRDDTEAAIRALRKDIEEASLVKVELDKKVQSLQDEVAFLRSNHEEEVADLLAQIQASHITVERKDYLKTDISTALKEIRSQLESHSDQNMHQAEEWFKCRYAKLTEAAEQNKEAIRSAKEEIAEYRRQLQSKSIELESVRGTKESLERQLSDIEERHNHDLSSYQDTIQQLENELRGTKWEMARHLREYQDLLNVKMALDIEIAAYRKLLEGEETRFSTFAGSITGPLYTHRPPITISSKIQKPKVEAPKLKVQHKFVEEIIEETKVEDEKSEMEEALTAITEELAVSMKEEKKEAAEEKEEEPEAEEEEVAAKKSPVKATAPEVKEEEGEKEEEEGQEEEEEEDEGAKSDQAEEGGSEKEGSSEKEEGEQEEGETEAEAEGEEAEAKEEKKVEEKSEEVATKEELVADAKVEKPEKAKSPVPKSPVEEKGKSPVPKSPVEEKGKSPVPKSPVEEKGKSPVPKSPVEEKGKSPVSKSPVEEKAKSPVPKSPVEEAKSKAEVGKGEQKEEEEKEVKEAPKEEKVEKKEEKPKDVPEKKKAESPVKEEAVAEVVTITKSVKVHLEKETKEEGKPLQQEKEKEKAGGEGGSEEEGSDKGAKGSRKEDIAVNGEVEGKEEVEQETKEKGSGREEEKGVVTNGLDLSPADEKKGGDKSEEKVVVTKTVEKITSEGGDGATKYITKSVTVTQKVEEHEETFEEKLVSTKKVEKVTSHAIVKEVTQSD

Compound | target | assay | test system | setting | scale | endpoint | value
COc1ccc(N2C(=O)N(c3c(C)cccc3Cl)Cc3cnc(Nc4ccc(C5CCN(C)CC5)cc4OC)nc32)nc1 | Tyrosine-protein kinase Yes (YES1, Homo sapiens, UniProt P07947) | kinase activity, inhibitor |  | 0.5 µM, kinase YES |  | inhibition | 98%
CN1CCN(c2cc(-c3ccncc3)c(-c3ccc4ccccc4c3)nn2)CC1 | Succinate receptor 1 (SUCNR1, Homo sapiens, UniProt Q9BXA5) | antagonist, FLIPR |  | 10 µM |  | inhibition | 1.5%
COc1cc(Nc2ncc(F)c(Nc3ccc4c(n3)NC(=O)C(C)(C)O4)n2)cc(OC)c1OC | Activin receptor type-2B (ACVR2B, Homo sapiens, UniProt Q13705) | KINOMEscan |  | 10 µM |  | inhibition | 0%
[2H]c1c([2H])c([C@]2([2H])CCCN2C(=O)C(C)(C)Oc2ccc3cn[nH]c3c2)c([2H])c([2H])c1C([2H])([2H])[2H] | Protein-tyrosine kinase 6 (PTK6, Homo sapiens, UniProt Q13882) | KINOMEscan |  | 1 µM | reference: DMSO control | remaining binding | 71%
O=C(Nc1cccnn1)N1CCC(=Cc2cccc(Oc3ccc(C(F)(F)F)cn3)c2)CC1 | Cysteinyl leukotriene receptor 2 (CYSLTR2, Homo sapiens, UniProt Q9NS75) | radioligand binding |  | 50 µM, together with: [3H]LTD4 |  | inhibition of binding | 26%
O=C(c1ccc(Cl)cc1)N1CCN2C(=O)N(OC(=O)N3CCOc4ccccc43)C(=O)C2C1 (centres unmarked) | Neutral cholesterol ester hydrolase 1 (NCEH1, Homo sapiens, UniProt Q6PIU2) | MS-based ABPP | SW-620 conditioned medium | 10 µM, 1 h, 37 °C, median protein ratio | reference: compound over DMSO | probe labelling ratio | 1.34
C[C@H]1CN(c2n[nH]c3nc(N[C@H]4CC[C@H](NS(=O)(=O)CCC(F)(F)F)CC4)ncc23)CCO1 | Neurofilament medium polypeptide (Homo sapiens, UniProt P07197) | Kinobeads competition, refers to: NEFM |  | 0.16 µM, unit not given | reference: vehicle | remaining binding | 0.89
O=C(Nc1cnccc1Cl)N1CCN(Cc2ccc3c(c2)OC(F)(F)O3)CC1 | Kappa-type opioid receptor (OPRK1, Homo sapiens, UniProt P41145) | radioligand binding, inhibitor |  | 50 µM, human, together with: [3H]diprenorphine |  | inhibition | 19%

For quick reference, copied from above:
Compound | target | assay | test system | setting | scale | endpoint | value
COc1cc(Nc2ncc(F)c(Nc3ccc4c(n3)NC(=O)C(C)(C)O4)n2)cc(OC)c1OC | Activin receptor type-2B (ACVR2B, Homo sapiens, UniProt Q13705) | KINOMEscan |  | 10 µM |  | inhibition | 0%
